Measurements from different studies.
Every numbered part comes from another study and shows a few of its results, in no order. Changes are numbered by the printed parent chain.

Block 1 — technique: DHFR PCA, deep sequencing; sample: yeast; added: (+)-ABA 0.11 µM; baseline: wild-type fitted maximum; direction: higher = stronger binding
Target: ABI1, truncated, D143A, DHFR fusion (Arabidopsis thaliana)
Setting: methotrexate growth selection, single substitutions
Starting sequence: PYL1, truncated, DHFR fusion (Arabidopsis thaliana); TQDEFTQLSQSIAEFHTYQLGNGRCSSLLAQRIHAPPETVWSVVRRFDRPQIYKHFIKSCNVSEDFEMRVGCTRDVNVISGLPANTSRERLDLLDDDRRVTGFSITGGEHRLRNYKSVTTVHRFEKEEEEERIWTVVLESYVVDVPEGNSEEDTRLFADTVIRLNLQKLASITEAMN
`V142S` — result for “relative binding score”: 20.1%.
`E127I`: “relative binding score” 21.8%.
`H55N` — result for “relative binding score”: 20.4%.
For `A158T`, “relative binding score” read 19.2%.
`D48K` — result for “relative binding score”: -10.9%.
`R113W` — result for “relative binding score”: 2.05%.

Block 2 — technique: RNA Bind-n-Seq; form: RNA; sample: in vitro; concentration: not given; baseline: input RNA pool; direction: higher = stronger binding
Target: RING finger protein unkempt homolog, zinc fingers 1-6, GST-SBP tag (UNK, Homo sapiens, UniProt Q9C0B0, residues 30-357)
Setting: RNA with constant flanks, human and mouse sites, ends assumed
Construct (chain): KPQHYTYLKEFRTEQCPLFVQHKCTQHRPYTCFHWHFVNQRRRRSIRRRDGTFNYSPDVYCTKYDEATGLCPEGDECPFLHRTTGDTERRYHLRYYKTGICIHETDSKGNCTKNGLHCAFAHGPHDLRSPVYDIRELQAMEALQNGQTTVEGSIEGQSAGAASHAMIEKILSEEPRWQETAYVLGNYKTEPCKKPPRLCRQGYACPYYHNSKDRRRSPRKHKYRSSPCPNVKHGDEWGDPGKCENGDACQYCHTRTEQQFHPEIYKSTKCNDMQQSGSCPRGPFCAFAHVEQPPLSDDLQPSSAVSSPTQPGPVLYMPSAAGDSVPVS
The bound/input enrichment of `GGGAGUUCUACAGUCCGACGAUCAAAACACUUUUCCGUAACAUUUUCUCUCUGCGACUCCCAGAGCUUUUAGUAUCUCCAGAAUGUUAUUUUCCAUUUUCUAUACGACUCAAAAGCAAUAUAAACUCCAAAAAAUCUACGAAACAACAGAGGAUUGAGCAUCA` is reported as 0.91 ratio.
With `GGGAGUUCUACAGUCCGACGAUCAGUAUAUGUAAAUGUCUGUUUUUCAUAAUUGCUCUUUAUAUUGUGUGUUAUCAGACAAGAUAGUUAUUUAAGAAACAUGGGAAAUGCAGAAAUGACUGCAGUGCAGCAGUAAUUAUGGUGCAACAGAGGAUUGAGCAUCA` the bound/input enrichment was 2.19 ratio.
`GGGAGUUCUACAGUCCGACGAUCACAAAGAAUCGAGUGGAAAUAAAUGAUUUAGACCCUGAGGUAUUUAAAGAAAUGAUGAGAUUUGUUUACACAGGAAAAGCACCAAAUCUUGAUAAAAUGGCUGACAACUUGUUGGCAGCUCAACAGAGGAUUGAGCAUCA` has a bound/input enrichment of 0.623 ratio.
`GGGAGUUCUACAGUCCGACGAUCAAGAGCACCUCAGGAAGCACUGGGGCGGGUGACACUCGUCUCGGCGACCAAGGGCAGUGCUAGCAUCUGUCCGCAUUGCCUAUGCUCCGUUCAAUCCUGAACUAAAGCGUACACUUCUUCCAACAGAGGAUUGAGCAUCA` gave a bound/input enrichment of 0.0376 ratio.
`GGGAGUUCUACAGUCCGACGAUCCAUCCUCACUGUAAACAGUAAUGCUAUAUGCAUGAAGCUUCUGUUUAUUGUUUUCCAUAUUUAAGGAAACAACAUCCCAUAAUAGAAAUGAGCAUGCAGGGCUAAGGCAUAUAGGAUUUUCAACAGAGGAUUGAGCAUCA` has a bound/input enrichment of 0.351 ratio.
`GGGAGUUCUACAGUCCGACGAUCGAAGUCGUUUCUCCCCAACUCCCAACUCCUGAAGGUUGCUGCCUGCAUAUUUACUCUUCAUUAGUGCUAUUUUCCUGUAUGUCAUUGUGAGCAAGCUGUGAUUAAUAAAGAAUUGGAGUUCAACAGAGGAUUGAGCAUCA` has a bound/input enrichment of 1.05 ratio.
The bound/input enrichment of `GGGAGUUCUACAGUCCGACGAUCGUAUCCAUGGGGCUUACAAGGAGCAUGCAAGUUGUCCCCUUGGACAAACAGAUCACAAUCAUAGAUAGUCCGAGCUUCAUCGUAUCUCCACUUAAUUCCUCCUCUGCGCUUGCUCUGCGACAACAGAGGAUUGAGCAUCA` is reported as 0.39 ratio.
With `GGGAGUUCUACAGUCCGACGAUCGGGUUUGGGGUAGAAGGGAGGGAGGGGGCAGGACAGUGUGGAAUCUCUAGGGUGUAUGGGUAGGUAGGGGGCACAGUUAGUUCUAAGUGGGCUUUUAUGCUAAAAGCCUCUGGGGAUAUCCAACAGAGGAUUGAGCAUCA` the bound/input enrichment was 14.7 ratio.
With `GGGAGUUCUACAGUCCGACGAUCAGGACAUGAGAAGAGGCCAAACUUGCUCAAGAUCAGUUUGUUUUUUCAAGUGUCAUUGCAAUUUAUUACUAUUAGGUACCAAGUGGGUGGGAAUAAUAUACAGCAUUUGUGUCAAGCUACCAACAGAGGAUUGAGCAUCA` the bound/input enrichment was 0.509 ratio.
The bound/input enrichment of `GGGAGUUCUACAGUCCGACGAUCUUGAACUAUCCUAAUGAGACAAAUUUAUACCUUCCCCCAGCCCCCAAGGUUAAAACUAAUACCCUAAUUCAUUAAACUCUUGAAACAGGUGUCACAAAGGAGGAAGACAUCACCCCUCACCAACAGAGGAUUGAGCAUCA` is reported as 0.51 ratio.

Block 3 — technique: Sort-seq; refers to: YFP reporter; sample: E. coli; setting: PhoQ-PhoP variant library; added: 10 µM Mg2+; baseline: high Mg2+ state; direction: higher = stronger signaling
Molecule: PhoQ, residues 284 288 289 292 302 303 GANMMA
The fold induction was 9.48 (PhoP, residues 12 14 15 18 19 QYCSL (Escherichia coli, UniProt P23836)).
The fold induction was 9.22 (PhoP, residues 12 14 15 18 19 STHWV (Escherichia coli, UniProt P23836)).
The fold induction was 1.64 (PhoP, residues 12 14 15 18 19 SHWTV (Escherichia coli, UniProt P23836)).

Block 4 — target: CCNF, cyclin fold, Cln2 fusion (human); technique: yeast growth competition, sequencing; sample: yeast; setting: strong parent motif; baseline: not given; direction: higher = stronger binding
Starting sequence: SLBP docking peptide (human); ARYKRKLLINDFG
`ARGKRKLLINDFG [Y3G]`: “normalised enrichment score” 1.71.
`ARYKRKLIINDFG [L8I]`: “normalised enrichment score” 2.02.
For `ARYKRNLLINDFG [K6N]`, “normalised enrichment score” read 1.93.
`ARYKRKLLITDFG [N10T]` — result for “normalised enrichment score”: 1.99.
`ARYKRKLLISDFG [N10S]`: “normalised enrichment score” 1.84.
`ARYKRKLLIKDFG [N10K]` — result for “normalised enrichment score”: 2.27.
For `ARYKRKLLCNDFG [I9C]`, “normalised enrichment score” read 1.48.
Under “normalised enrichment score”, `ARYKRHLLINDFG [K6H]` is recorded as 0.515.
`ARYHRKLLINDFG [K4H]`: “normalised enrichment score” 2.29.
`ARHKRKLLINDFG [Y3H]` — result for “normalised enrichment score”: 0.993.
